Measured values from different studies.
Protocols differ between the studies behind these lines.
Organism: Pseudomonas aeruginosa

SMILES | assay | test system | setting | scale | MIC
C=CCOC(=O)c1ccc(NC(=O)c2ccc(NC(=O)c3ccc(NC(=O)C(CC(N)=O)NC(=O)c4ccc(NC(=O)c5ccc([N+](=O)[O-])cc5)cc4)cc3)c(OC(C)C)c2OCC=C)cc1 (stereo not shown) | microbial growth | PA14 |  |  | > 64 mg/L
CC(=O)N[C@H](CCCCN)C(=O)N[C@H](CC(C)C)C(=O)N[C@H](CCCCN)C(=O)N[C@H](CO)C(=O)N[C@H](CC(C)C)C(=O)N[C@H](CC(C)C)C(=O)N[C@H](CCCCN)C(=O)N[C@@H](C(=O)N[C@H](CC(C)C)C(=O)N[C@H](CO)C(=O)N[C@H](CCCCN)C(=O)N[C@H](C)C(=O)N[C@H](CCCCN)C(=O)N[C@H](CCCCN)C(=O)N[C@H](CCCCN)C(=O)N[C@H](CC(C)C)C(=O)N[C@H](CC(C)C)C(=O)N[C@H](CCCCN)C(=O)N[C@@H](C(=O)N[C@H](C)C(=O)N[C@H](CC(C)C)C(=O)N[C@H](CCCCN)C(=O)N[C@H](C)C(=O)N[C@H](CC(C)C)C(=O)N[C@H](CO)C(=O)N[C@H](CCCCN)C(N)=O)[C@H](C)O)[C@H](C)O | broth microdilution | M2 | 24 h, 37 °C |  | 0.7 µM
S=c1n(CN2CCN(c3ccccn3)CC2)nc(C23CC4CC(CC(C4)C2)C3)n1-c1ccccc1 | two-fold dilution | IFO 3448 | 24 h, 36 °C |  | 4 mg/L
COc1ccc2ccc3c(c2c1)C=[N+]1C2CCCCC2[N+]2=Cc4ccc(C)cc4[O][Au-]21[O]3.F[P-](F)(F)(F)(F)F (stereo not shown) | bacterial growth, broth microdilution | carbapenem-resistant clinical isolate | 24 h |  | 10 µM
c1ccc(CN2CCOCCOCCN(CCCCCCCCCCN3CCOCCOCCN(CCCCCCCCCCN4CCOCCOCCN(Cc5ccccc5)CCOCCOCC4)CCOCCOCC3)CCOCCOCC2)cc1 | microbial growth |  |  |  | > 100 µM
CC[C@@H](C)[C@@H](NC(=O)[C@@H](C)NC(=O)[C@@H](CCCCN)NC(=O)[C@@H](CC(C)C)NC(=O)[C@@H](CC(C)C)NC(=O)[C@H](NC(=O)[C@@H](CCCCN)NC(=O)[C@@H](CC(C)C)NC(=O)[C@@H](C)NC(=O)[C@@H](CCCCN)NC(=O)[C@@H](CCCCN)NC(=O)[C@@H](CCCCN)NC(=O)[C@@H](C)NC(=O)[C@@H](CCCCN)NC(=O)[C@@H](CO)NC(=O)[C@@H](Cc1ccccc1)NC(=O)[C@H](NC(=O)[C@@H](CCCCN)NC(=O)[C@@H](CC(C)C)NC(=O)[C@@H](Cc1ccccc1)NC(=O)[C@@H](CO)NC(=O)[C@@H](CCCCN)NC(=O)[C@@H](Cc1c[nH]c2ccccc12)NC(=O)[C@@H](CCCCN)NC(C)=O)[C@H](C)O)[C@H](C)O)C(=O)N[C@H](CO)C(=O)N[C@H](CCCCN)C(N)=O | broth microdilution | M2 | 24 h, 37 °C |  | 5.1 µM
CC1(C)S[C@@H]2[C@H](NC(=O)[C@H](NC(=O)C3=C(O)C(c4ccccc4F)NC3=O)c3ccccc3)C(=O)N2[C@H]1C(=O)O (stereo partly shown) | broth microdilution | PAO1, Mueller-Hinton broth | together with: CCCP 50 µg/mL |  | 6.25 mg/L
COc1ccc2ccc3c(c2c1)C=[N+]1C2CCCCC2[N+]2=Cc4cc(C(C)(C)C)cc(C(C)(C)C)c4[O][Au-]21[O]3.F[P-](F)(F)(F)(F)F (stereo not shown) | bacterial growth, broth microdilution | carbapenem-resistant clinical isolate | 24 h |  | > 20 µM
COc1ccc2c3c(oc2c1CC=C(C)C)-c1cc(CC=C(C)C)c(O)cc1OC3 |  | ATCC 10145 |  |  | 128 mg/L
COc1ccc2ccc3c(c2c1)C=[N+]1C2CCCCC2[N+]2=Cc4ccc(OCCN5CCCCC5)cc4[O][Au-]21[O]3.F[P-](F)(F)(F)(F)F (stereo not shown) | bacterial growth, broth microdilution | carbapenem-resistant clinical isolate | 24 h |  | 10 µM
CC[C@@H](C)[C@@H](NC(=O)[C@@H](C)NC(=O)[C@@H](CCCCN)NC(=O)[C@@H](CC(C)C)NC(=O)[C@@H](C)NC(=O)[C@H](NC(=O)[C@@H](Cc1c[nH]cn1)NC(=O)[C@@H](CC(C)C)NC(=O)[C@H](NC(=O)[C@H](NC(=O)[C@@H](CCCCN)NC(=O)[C@H](NC(=O)[C@@H](C)NC(=O)[C@@H](CO)NC(=O)[C@@H](CCCCN)NC(=O)[C@@H](Cc1ccccc1)NC(=O)[C@H](NC(=O)[C@@H](CCCCN)NC(=O)[C@@H](CC(C)C)NC(=O)[C@@H](Cc1ccccc1)NC(=O)[C@@H](CO)NC(=O)[C@@H](CCCCN)NC(=O)[C@@H](Cc1c[nH]c2ccccc12)NC(=O)[C@@H](CCCCN)NC(C)=O)[C@H](C)O)C(C)C)[C@H](C)O)C(C)C)[C@H](C)O)C(=O)N[C@H](CO)C(=O)N[C@H](CO)C(N)=O | broth microdilution | PAO1 | 24 h, 37 °C |  | 1.3 µM
CCn1[c]([Au-]([Cl])([Cl])[Cl])[n+](CC)c2ccc(C(=O)OC)cc21 | broth dilution | PA7 DSM 24068 | 20 h, 37 °C |  | 59.8 µM
O=C(NCCNCCO)c1cn(Cc2cccc(Br)c2)c2cc(Cl)c(OCc3ccc(C(F)(F)F)cc3)cc2c1=O |  | ATCC 27853 |  | ≥80% growth inhibition | < 0.25 mg/L
CCCCCCCCCCCCCCCCN(C)[C@H](CO)C(=O)N[C@H](C)C(=O)NCC(=O)N(C)[C@@H]1C(=O)N[C@@H](C)C(=O)N[C@H](C(=O)O)Cc2ccc(O)c(c2)-c2cc1ccc2O | broth microdilution | PAO1 wild type | 24 h, 37 °C, inactive |  | inactive
CO[C@@H](C(N)=O)[C@H](NC(=O)c1ccc(NC(=O)c2ccc([N+](=O)[O-])cc2)cc1)C(=O)Nc1ccc(C(=O)Nc2ccc(C(=O)Nc3ccc(C(=O)O)cc3)c(O)c2OC(C)C)cc1 |  | DSM 46316 ESBL 2 |  |  | 2 mg/L
COc1ccc2ccc3c(c2c1)C=[N+]1C2CCCCC2[N+]2=Cc4cccc(F)c4[O][Au-]21[O]3.F[P-](F)(F)(F)(F)F (stereo not shown) | bacterial growth, broth microdilution | carbapenem-resistant | 24 h |  | > 20 µM
CSCC[C@H](NC(=O)[C@H](CCCNC(=N)N)NC(=O)[C@H](Cc1c[nH]c2ccccc12)NC(=O)[C@H](CCC(N)=O)NC(=O)[C@H](Cc1c[nH]c2ccccc12)NC(=O)[C@H](CCCNC(=N)N)NC(=O)[C@@H](N)CCCNC(=N)N)C(=O)N[C@@H](CCCCN)C(=O)N[C@@H](CCCCN)C(=O)N[C@@H](CC(C)C)C(=O)NCC(=O)NCCCC[C@H](NC(=O)CNC(=O)[C@H](CC(C)C)NC(=O)[C@H](CCCCN)NC(=O)[C@H](CCCCN)NC(=O)[C@H](CCSC)NC(=O)[C@H](CCCNC(=N)N)NC(=O)[C@H](Cc1c[nH]c2ccccc12)NC(=O)[C@H](CCC(N)=O)NC(=O)[C@H](Cc1c[nH]c2ccccc12)NC(=O)[C@H](CCCNC(=N)N)NC(=O)[C@@H](N)CCCNC(=N)N)C(=O)NCCCCCC(N)=O | broth microdilution | ATCC 27853 | 24 h, 37 °C |  | 15 µM
CNC(C)C1CCC(N)C(OC2C(N)CC(N)C(OC3OCC(C)(O)C(NC)C3O)C2O)O1 (stereo not shown) | broth microdilution | PL1 clinical isolate | 18 h, 37 °C |  | 2 µM
CC(C)C[C@H](NC(=O)[C@H](CC(N)=O)NC(=O)[C@H](CCCNC(=N)N)NC(=O)[C@@H](CC(C)C)NC(=O)[C@H](Cc1ccccc1)NC(=O)[C@H](CC(=O)O)NC(=O)[C@H](CCCCN)NC(=O)[C@@H](CC(C)C)NC(=O)[C@H](CCCNC(=N)N)NC(=O)[C@H](CCC(N)=O)NC(=O)[C@@H](NC(=O)[C@@H](CC(C)C)NC(=O)[C@H](CCCNC(=N)N)NC(=O)[C@H](CCCCN)NC(=O)[C@H](Cc1ccc(-c2ccccc2)cc1)NC(=O)CN)C(C)C)C(=O)N[C@H](C(N)=O)C(C)C | broth microdilution | PAO1 |  |  | 12.5 µM
COc1ccc2ccc3c(c2c1)C=[N+]1C2CCCCC2[N+]2=Cc4cc(C(C)(C)C)ccc4[O][Au-]21[O]3.F[P-](F)(F)(F)(F)F (stereo not shown) | bacterial growth, broth microdilution | carbapenem-resistant | 24 h |  | 10 µM
COc1c2c(cc3c1[C@@H]1Oc4c(ccc(O)c4CC=C(C)C)[C@@H]1CO3)OC(C)(C)C=C2 |  | ATCC 10145 |  |  | 128 mg/L
CCCCCCCCCCCC(=O)NCCCC[C@@H]1NC(=O)[C@H](CCCNC(=N)N)NC(=O)[C@H](CCCNC(=N)N)NC(=O)[C@H](CCCNC(=N)N)NC(=O)[C@H](CCCNC(=N)N)NC(=O)[C@H](CCCNC(=N)N)NC1=O | broth microdilution | PAO1 | 37 °C |  | 136 mg/L
CC(CCCOC(=O)CCC[N+](C)(C)C)C1CCC2C3C(OC(=O)CCC[N+](C)(C)C)CC4CC(OC(=O)CCC[N+](C)(C)C)CCC4(C)C3CC(OC(=O)CCC[N+](C)(C)C)C12C (stereo not shown) | microbial growth, broth dilution | ATCC27853 | 16 h |  | > 250 mg/L
CC(C)C(O)C(NC(=O)[C@H](Cc1ccc(O)cc1)NC(=O)C(Cc1ccc(O)cc1)[N+](C)(C)C)C(=O)N[C@@H](C)C(=O)O (stereo partly shown) | CLSI broth microdilution | PAO1 |  |  | > 100 µM
COc1c(CC=C(C)C)c(O)cc2c1-c1oc3c(CC=C(C)C)c(O)ccc3c1CO2 |  | ATCC 10145 |  |  | 128 mg/L
NCC1OC(OC2C(N)CC(N)C(OC3OC(CO)C(O)C(N)C3O)C2OCCCCn2cc(CNc3nc(NCc4cn(CCCCOC5C(OC6OC(CN)C(O)CC6N)C(N)CC(N)C5OC5OC(CO)C(O)C(N)C5O)nn4)nc(NCc4cn(CCCCOC5C(OC6OC(CN)C(O)CC6N)C(N)CC(N)C5OC5OC(CO)C(O)C(N)C5O)nn4)n3)nn2)C(N)CC1O (stereo not shown) | microbial growth, broth dilution | PAO1 |  |  | > 128 mg/L
COc1ccc2ccc3c(c2c1)C=[N+]1C2CCCCC2[N+]2=Cc4cc(C)ccc4[O][Au-]21[O]3.F[P-](F)(F)(F)(F)F (stereo not shown) | bacterial growth, broth microdilution | carbapenem-resistant clinical isolate | 24 h |  | > 20 µM
CC(=O)N[C@H](CCCCN)C(=O)N[C@H](CC(C)C)C(=O)N[C@H](CCCCN)C(=O)N[C@H](CO)C(=O)N[C@H](CC(C)C)C(=O)N[C@H](CC(C)C)C(=O)N[C@H](CCCCN)C(=O)N[C@@H](C(=O)N[C@H](CC(C)C)C(=O)N[C@H](CO)C(=O)N[C@H](CCCCN)C(=O)N[C@H](C)C(=O)N[C@H](CCCCN)C(=O)N[C@H](CCCCN)C(=O)N[C@H](CCCCN)C(=O)N[C@H](CCCCN)C(=O)N[C@H](CC(C)C)C(=O)N[C@H](CCCCN)C(=O)N[C@@H](C(=O)N[C@H](CC(C)C)C(=O)N[C@H](CC(C)C)C(=O)N[C@H](CCCCN)C(=O)N[C@H](C)C(=O)N[C@H](CC(C)C)C(=O)N[C@H](CO)C(=O)N[C@H](CCCCN)C(N)=O)[C@H](C)O)[C@H](C)O | broth microdilution | PAK | 24 h, 37 °C |  | 2.6 µM
